Measurements pooled from the literature.
A part holds a random share of what one study measured.
Sequence of UniProt P10721 (whole entry, unmodified, looked up): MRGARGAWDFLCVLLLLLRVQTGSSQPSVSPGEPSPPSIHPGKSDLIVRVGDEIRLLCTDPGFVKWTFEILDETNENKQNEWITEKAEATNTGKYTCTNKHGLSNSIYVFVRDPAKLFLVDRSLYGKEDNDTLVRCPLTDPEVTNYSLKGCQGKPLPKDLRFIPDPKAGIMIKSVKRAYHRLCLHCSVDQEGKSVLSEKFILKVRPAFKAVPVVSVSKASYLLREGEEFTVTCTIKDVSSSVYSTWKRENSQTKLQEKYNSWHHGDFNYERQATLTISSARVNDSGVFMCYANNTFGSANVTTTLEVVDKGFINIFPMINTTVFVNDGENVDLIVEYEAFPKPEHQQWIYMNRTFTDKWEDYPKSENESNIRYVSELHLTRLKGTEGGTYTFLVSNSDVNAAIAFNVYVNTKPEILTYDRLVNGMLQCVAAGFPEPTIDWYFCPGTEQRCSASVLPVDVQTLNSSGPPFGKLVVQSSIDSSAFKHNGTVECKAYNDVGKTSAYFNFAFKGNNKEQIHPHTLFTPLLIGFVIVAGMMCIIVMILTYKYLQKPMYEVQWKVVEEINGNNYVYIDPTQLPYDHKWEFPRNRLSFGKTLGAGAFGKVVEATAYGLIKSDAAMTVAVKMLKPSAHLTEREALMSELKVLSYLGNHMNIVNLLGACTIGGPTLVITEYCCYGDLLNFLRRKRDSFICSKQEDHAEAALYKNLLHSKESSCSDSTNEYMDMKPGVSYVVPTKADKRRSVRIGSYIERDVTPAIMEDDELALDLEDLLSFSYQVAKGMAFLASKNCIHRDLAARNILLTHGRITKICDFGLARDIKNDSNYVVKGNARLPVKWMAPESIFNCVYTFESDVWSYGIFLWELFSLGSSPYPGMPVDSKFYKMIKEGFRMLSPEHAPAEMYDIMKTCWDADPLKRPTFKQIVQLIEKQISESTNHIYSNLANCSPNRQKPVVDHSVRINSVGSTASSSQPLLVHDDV
Sequence of UniProt P57059 (whole entry, looked up): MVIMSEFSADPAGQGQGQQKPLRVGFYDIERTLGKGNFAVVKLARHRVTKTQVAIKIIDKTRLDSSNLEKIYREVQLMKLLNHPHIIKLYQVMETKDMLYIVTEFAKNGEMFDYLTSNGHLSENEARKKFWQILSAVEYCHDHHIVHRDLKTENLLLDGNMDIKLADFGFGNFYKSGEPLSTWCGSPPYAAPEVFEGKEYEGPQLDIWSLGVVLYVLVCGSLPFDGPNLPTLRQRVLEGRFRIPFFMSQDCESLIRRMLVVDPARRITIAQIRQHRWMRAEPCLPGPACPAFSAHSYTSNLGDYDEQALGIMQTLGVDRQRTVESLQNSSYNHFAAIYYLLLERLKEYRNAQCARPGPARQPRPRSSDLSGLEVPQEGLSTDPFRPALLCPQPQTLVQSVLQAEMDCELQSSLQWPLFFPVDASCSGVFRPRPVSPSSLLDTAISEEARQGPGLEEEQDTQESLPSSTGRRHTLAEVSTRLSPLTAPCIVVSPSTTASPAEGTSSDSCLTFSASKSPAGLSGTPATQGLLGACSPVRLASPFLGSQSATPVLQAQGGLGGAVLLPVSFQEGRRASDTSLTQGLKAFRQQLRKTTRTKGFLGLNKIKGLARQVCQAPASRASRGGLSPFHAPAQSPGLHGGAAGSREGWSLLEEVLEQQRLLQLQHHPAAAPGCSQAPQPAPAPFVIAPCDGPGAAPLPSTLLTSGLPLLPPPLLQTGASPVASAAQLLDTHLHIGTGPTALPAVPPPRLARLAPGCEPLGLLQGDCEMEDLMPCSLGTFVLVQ
Sequence of UniProt Q16644 (whole entry, looked up): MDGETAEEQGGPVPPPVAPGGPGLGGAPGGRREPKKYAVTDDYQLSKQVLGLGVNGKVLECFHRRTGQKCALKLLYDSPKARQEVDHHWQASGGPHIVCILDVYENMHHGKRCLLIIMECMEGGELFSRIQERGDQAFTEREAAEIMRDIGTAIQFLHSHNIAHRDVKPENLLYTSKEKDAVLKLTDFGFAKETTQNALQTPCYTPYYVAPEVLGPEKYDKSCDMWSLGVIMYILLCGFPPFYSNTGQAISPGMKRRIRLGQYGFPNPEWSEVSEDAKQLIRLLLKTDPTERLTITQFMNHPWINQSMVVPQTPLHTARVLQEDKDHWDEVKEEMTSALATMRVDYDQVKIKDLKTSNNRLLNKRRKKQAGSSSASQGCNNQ
Sequence of UniProt Q07912 (whole entry, looked up): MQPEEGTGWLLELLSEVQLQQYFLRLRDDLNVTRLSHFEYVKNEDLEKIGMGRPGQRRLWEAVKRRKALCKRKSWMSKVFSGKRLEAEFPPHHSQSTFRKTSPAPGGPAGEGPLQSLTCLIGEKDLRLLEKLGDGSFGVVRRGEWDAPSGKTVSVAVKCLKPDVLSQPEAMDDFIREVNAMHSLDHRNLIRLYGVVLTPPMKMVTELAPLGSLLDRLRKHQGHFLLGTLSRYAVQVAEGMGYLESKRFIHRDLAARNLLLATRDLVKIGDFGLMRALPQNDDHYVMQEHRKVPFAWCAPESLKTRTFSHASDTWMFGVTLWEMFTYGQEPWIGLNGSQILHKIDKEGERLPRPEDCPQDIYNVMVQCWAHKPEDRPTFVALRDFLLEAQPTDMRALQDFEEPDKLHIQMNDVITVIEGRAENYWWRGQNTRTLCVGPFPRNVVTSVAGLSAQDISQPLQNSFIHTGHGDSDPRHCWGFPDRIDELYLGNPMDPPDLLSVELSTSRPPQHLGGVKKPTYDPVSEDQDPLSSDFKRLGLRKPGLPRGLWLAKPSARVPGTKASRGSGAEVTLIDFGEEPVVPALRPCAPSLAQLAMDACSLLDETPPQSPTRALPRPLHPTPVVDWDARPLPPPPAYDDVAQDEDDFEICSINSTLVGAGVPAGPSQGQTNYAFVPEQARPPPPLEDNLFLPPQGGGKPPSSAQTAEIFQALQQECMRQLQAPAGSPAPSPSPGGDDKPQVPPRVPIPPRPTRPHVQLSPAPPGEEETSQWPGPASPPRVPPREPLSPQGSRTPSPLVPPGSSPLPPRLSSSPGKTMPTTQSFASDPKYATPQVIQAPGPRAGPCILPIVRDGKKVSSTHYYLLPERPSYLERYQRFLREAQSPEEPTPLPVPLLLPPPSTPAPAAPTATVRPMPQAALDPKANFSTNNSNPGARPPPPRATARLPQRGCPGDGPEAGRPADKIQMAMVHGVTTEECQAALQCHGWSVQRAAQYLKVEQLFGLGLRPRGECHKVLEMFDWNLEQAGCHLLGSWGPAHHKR
Sequence of UniProt O94806 (whole entry, looked up): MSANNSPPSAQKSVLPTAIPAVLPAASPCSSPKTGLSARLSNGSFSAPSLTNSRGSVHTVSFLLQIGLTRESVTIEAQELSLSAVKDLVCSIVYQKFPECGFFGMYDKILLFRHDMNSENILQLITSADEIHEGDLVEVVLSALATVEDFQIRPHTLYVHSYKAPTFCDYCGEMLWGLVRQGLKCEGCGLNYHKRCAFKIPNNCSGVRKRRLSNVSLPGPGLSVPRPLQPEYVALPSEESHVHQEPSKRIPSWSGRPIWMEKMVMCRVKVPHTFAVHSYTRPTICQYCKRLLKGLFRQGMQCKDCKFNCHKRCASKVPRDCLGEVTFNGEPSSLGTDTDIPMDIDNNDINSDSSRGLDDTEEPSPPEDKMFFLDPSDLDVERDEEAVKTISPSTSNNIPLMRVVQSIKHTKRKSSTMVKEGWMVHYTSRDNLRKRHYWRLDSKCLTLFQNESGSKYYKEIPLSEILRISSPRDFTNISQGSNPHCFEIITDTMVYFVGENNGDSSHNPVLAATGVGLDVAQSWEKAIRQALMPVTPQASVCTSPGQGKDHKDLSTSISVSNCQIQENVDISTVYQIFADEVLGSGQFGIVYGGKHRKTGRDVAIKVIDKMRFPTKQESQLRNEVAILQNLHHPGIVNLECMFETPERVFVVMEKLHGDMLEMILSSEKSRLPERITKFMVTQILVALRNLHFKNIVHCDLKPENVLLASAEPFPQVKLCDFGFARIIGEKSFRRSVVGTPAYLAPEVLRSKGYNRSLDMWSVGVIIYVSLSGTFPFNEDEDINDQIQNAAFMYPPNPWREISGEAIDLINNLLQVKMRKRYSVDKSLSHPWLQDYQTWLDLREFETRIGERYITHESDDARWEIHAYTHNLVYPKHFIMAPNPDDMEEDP
Sequence of UniProt O43781 (whole entry, looked up): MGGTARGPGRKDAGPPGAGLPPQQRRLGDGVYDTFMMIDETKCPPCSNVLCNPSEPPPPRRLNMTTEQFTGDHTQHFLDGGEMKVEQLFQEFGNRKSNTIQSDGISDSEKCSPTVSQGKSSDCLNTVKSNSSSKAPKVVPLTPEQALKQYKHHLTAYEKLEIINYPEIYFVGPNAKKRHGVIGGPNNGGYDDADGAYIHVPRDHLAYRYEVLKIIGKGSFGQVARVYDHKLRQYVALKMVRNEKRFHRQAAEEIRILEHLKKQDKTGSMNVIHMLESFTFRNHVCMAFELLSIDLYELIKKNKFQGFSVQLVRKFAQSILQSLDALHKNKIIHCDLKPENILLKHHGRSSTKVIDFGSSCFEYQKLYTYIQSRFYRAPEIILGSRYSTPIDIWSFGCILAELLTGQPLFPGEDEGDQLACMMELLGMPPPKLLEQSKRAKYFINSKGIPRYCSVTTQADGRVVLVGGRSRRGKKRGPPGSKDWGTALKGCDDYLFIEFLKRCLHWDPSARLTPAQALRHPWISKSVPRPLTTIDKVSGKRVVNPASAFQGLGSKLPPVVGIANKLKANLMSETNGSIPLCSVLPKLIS
Sequence of UniProt O14733 (whole entry, looked up): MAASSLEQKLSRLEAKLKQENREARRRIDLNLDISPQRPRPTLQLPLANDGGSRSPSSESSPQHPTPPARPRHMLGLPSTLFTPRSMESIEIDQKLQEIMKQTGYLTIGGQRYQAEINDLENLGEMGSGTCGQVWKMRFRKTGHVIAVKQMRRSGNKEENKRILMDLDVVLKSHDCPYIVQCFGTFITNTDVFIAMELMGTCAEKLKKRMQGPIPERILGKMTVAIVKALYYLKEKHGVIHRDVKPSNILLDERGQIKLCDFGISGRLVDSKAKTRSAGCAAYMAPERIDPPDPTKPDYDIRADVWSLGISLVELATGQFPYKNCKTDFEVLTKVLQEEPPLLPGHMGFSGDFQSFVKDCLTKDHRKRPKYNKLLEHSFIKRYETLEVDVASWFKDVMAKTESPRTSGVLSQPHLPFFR

Set 1 — action: inhibitor; tested at: 10 µM; baseline: control; quantity: remaining activity
Target: Diamine acetyltransferase 1 (Homo sapiens, UniProt P21673)
Target sequence (P21673 1-171): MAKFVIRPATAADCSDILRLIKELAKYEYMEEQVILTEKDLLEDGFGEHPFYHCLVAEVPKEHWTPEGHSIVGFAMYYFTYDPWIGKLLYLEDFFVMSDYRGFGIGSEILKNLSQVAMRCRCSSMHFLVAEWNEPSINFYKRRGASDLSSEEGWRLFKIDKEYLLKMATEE
COC(=O)c1cccnc1: 92.7%
CCCCC/C=C\C/C=C\CCCCCCCC(=O)OCC(COC(=O)CCCCCCC/C=C\C/C=C\CCCCC)OC(=O)CCCCCCC/C=C\C/C=C\CCCCC: 97%
CCCCCCCCCCCCCCCCCCCCCCC(=O)OC: 90.5%
CCCCCCCCCCCCCCCCCCCC(=O)O: 95.9%
NC(N)=NCCCC(N)C(=O)O (racemic): 102%
C=C1CC[C@H](O)C/C1=C/C=C1\CCC[C@]2(C)[C@@H]([C@H](C)CCCC(C)C)CC[C@@H]12: 108%
C[C@@]12C[C@@]3(O)O[C@@H](O1)[C@]1(COC(=O)c4ccccc4)[C@H]3C[C@@]12O[C@@H]1O[C@H](COC(=O)c2ccccc2)[C@@H](O)[C@H](O)[C@H]1O: 108%
CC(C)=CCCC(C)CCO (stereo not shown): 99.2%
COc1cc(O)c2c(=O)c(-c3ccc(O)cc3)coc2c1: 97.2%
C[C@@H]1CC[C@@]2(OC1)O[C@H]1C[C@H]3[C@@H]4CC=C5C[C@@H](O[C@@H]6O[C@H](CO)[C@@H](O)[C@H](O)[C@H]6O[C@@H]6O[C@@H](C)[C@H](O)[C@@H](O)[C@H]6O)CC[C@]5(C)[C@H]4CC[C@]3(C)[C@@]1(O)[C@@H]2C: 85.7%
C[C@H]1[C@@H](O)CC[C@@H]2[C@]1(C)CC[C@H]1[C@@]2(C)CC[C@@]2(C)[C@@H]3CC(C)(C)CC[C@]3(C)CC[C@]12C: 98.6%

Set 2 — read-out: enzyme activity; action: inhibitor; tested at: 0.5 µM; baseline: control; quantity: remaining activity
Structure (SMILES): CC(C)(C)n1nc(Cc2cccc3ccccc23)c2c(N)ncnc21
MAP4K4 (Homo sapiens, UniProt O95819): 43.5%
ABL1 (Homo sapiens, UniProt P00519): 91.1%
WNK3 (Homo sapiens, UniProt Q9BYP7): 91.2%
Cyclin-dependent kinase 1, with cyclin B (CDK1, Homo sapiens, UniProt P06493): 107%
AXL (Homo sapiens, UniProt P30530): 103%
TSSK2 (Homo sapiens, UniProt Q96PF2): 87.6%
Cyclin-dependent kinase 6, with cyclin D3 (CDK6, Homo sapiens, UniProt Q00534): 97.3%
Cyclin-dependent kinase 4, with cyclin D3 (CDK4, Homo sapiens, UniProt P11802): 95.8%
CAMK2B (Homo sapiens, UniProt Q13554): 98.9%
DYRK3 (Homo sapiens, UniProt O43781): 94%
BLK (Homo sapiens, UniProt P51451): 95.5%
PHKG1 (Homo sapiens, UniProt Q16816): 91.3%
EPHB4 (Homo sapiens, UniProt P54760): 30.7%
HIPK2 (Homo sapiens, UniProt Q9H2X6): 102%
EPHA4 (Homo sapiens, UniProt P54764): 48.9%
EPHB1 (Homo sapiens, UniProt P54762): 47.7%
STK17A (Homo sapiens, UniProt Q9UEE5): 93.3%
PRKACG (Homo sapiens, UniProt P22612): 55.2%
STK16 (Homo sapiens, UniProt O75716): 97.6%
PDPK1 (Homo sapiens, UniProt O15530): 103%
RPS6KA6 (Homo sapiens, UniProt Q9UK32): 94.2%
MAPKAPK3 (Homo sapiens, UniProt Q16644): 110%
SRMS (Homo sapiens, UniProt Q9H3Y6): 101%
RPS6KA5 (Homo sapiens, UniProt O75582): 88.9%
HIPK4 (Homo sapiens, UniProt Q8NE63): 92.4%

Set 3 — tested at: 1 µM; quantity: remaining binding
SMILES: COc1ccc2c(c1)O[C@H](c1ccc(OC)c(OC)c1)C[C@@H]2NC(=O)C1(c2ccc3c(c2)OC(F)(F)O3)CC1
MATK (Homo sapiens, UniProt P42679); cell-free assay, competition with immobilised ligand: 100%
STK17B (Homo sapiens, UniProt O94768); cell-free assay, competition with immobilised ligand: 100%
MAP2K7 (Homo sapiens, UniProt O14733); cell-free assay, competition with immobilised ligand: 100%
MAPKAPK5 (Homo sapiens, UniProt Q8IW41); cell-free assay, competition with immobilised ligand: 100%
ALK (Homo sapiens, UniProt Q9UM73, C1156Y); cell-free assay, competition with immobilised ligand: 100%
PRKD3 (Homo sapiens, UniProt O94806); cell-free assay, competition with immobilised ligand: 100%
KIT (Homo sapiens, UniProt P10721, A829P); cell-free assay, competition with immobilised ligand: 69%
STK35 (Homo sapiens, UniProt Q8TDR2); cell-free assay, competition with immobilised ligand: 100%
IKBKE (Homo sapiens, UniProt Q14164); cell-free assay, competition with immobilised ligand: 96%
MAPK15 (Homo sapiens, UniProt Q8TD08); cell-free assay, competition with immobilised ligand: 100%
COQ8A (Homo sapiens, UniProt Q8NI60); cell-free assay, competition with immobilised ligand: 100%
LCK (Homo sapiens, UniProt P06239); cell-free assay, competition with immobilised ligand: 100%
SIK1 (Homo sapiens, UniProt P57059); competition binding: 100%
RET (Homo sapiens, UniProt P07949, M918T); cell-free assay, competition with immobilised ligand: 99%
WNK2 (Homo sapiens, UniProt Q9Y3S1); cell-free assay, competition with immobilised ligand: 85%

Set 4 — read-out: binding; tested at: 1 µM; quantity: remaining binding
Compound: COc1ccc2[nH]c3c4[nH]c5ccc(OC)cc5c4c4c(c3c2c1)C(=O)NC4=O
FGFR3 (Homo sapiens, UniProt P22607); competition with immobilised ligand: 93%
PRPF4B (Homo sapiens, UniProt Q13523): 97%
PKMYT1 (Homo sapiens, UniProt Q99640); competition with immobilised ligand: 97%
SBK3 (Homo sapiens, UniProt P0C264): 100%
GSK3B (Homo sapiens, UniProt P49841): 68%
WEE1 (Homo sapiens, UniProt P30291); competition with immobilised ligand: 53%
PIK3CA (Homo sapiens, UniProt P42336, H1047Y): 89%
SIK1 (Homo sapiens, UniProt P57059); competition with immobilised ligand: 67%
KIT (Homo sapiens, UniProt P10721, V559D/V654A): 66%
GRK3 (Homo sapiens, UniProt P35626): 70%
MAP3K7 (Homo sapiens, UniProt O43318); competition with immobilised ligand: 20%
DYRK2 (Homo sapiens, UniProt Q92630): 50%
TNK2 (Homo sapiens, UniProt Q07912); competition with immobilised ligand: 69%
